Experimental data pooled from the literature.
Compare with care: the assays were run in different laboratories. Several values in a cell are separate wells, animals, samples, runs or records. Numbers after ± are the reported error.

Structure (SMILES)	assay	system	conditions	how to read	measurement	result
CSc1cc(C)nc(SC)c1NC(=O)CN1CCN(CCSc2nc3ccccc3[nH]2)CC1.Cl		mouse Crl:CD1 (ICR), female, cerebrum	intranasal, 10 µL of CA solution once daily for 7 days, 120 min after last dose		tissue concentration	0.6 ng/g and 0.9 ng/g
OCc1nc2ccc(NCc3ccc(C(F)(F)F)cc3)cc2[nH]1		Balb/c mouse, male, liver	intravenous, 1 mg/kg, 6 h		tissue concentration	71.8 ± 21.1 ng/g
O=c1cc(-c2ccc(O)cc2)oc2c([C@@H]3OC[C@H](O)[C@H](O)[C@H]3O)c(O)c([C@@H]3O[C@H](CO)[C@@H](O)[C@H](O)[C@H]3O)c(O)c12	UHPLC-MS/MS	C57BL/6J mouse, kidneys	oral, dose not given		tissue concentration	0.31 ng/g
COc1cccc(OC)c1-c1cc(C(=O)NC2(C(=O)O)C3CC4CC(C3)CC2C4)nn1-c1ccc(C(=O)N(C)CCCN(C)CCCN(C)C(=O)CN2CCN(CC(=O)[O-])CCN(CC(=O)[O-])CCN(CC(=O)[O-])CC2)cc1C(C)C.[177Lu+3] (stereo not drawn)		mouse, HT-29 xenograft, kidney	4 h post injection		tissue uptake	3.8 %ID/g
CC(C)NCCCC[C@@H]1NC(=O)[C@H](Cc2ccc(O)cc2)NC(=O)[C@H](Cc2ccccc2)NC(=O)CC[C@H](C(=O)N[C@@H](CCCCNC(C)C)C(=O)N[C@@H](CCCCNC(=O)[C@H](CCC(=O)O)NC(=O)[C@H](CCC(=O)O)NC(=O)[C@H](CCC(=O)O)NC(=O)CN2CCN(CC(=O)O)CCN(CC(=O)O)CCN(CC(=O)O)CC2)C(N)=O)NC(=O)CNC(=O)[C@H](Cc2ccc3ccccc3c2)NC(=O)[C@@H](CCCNC(=N)N)NC1=O [gallium-68 labelled]		mouse with Daudi xenograft, lung	intravenous, 2 h		tissue uptake	0.27 %ID/g
Cc1nc2ccc(OCc3ccc(C(F)(F)F)cc3)cc2[nH]1		Balb/c mouse, male, liver	intravenous, 1 mg/kg, 72 h		tissue concentration	4.1 ± 2 ng/g
CC[C@H](C)[C@H](N)C(=O)O	binding, equilibrium dialysis LC-MS		5 µM, thermostabilized A2AR-BRIL construct	baseline: no-protein control, direction not given	z-scored log2 fold change	0.194
COCCCOc1cc2c(cc1OC)-c1cc(=O)c(C(=O)O)cn1[C@H](C(C)C)C2		CD-1 mouse, liver	oral, 10 mg/kg		tissue concentration	> 10000 ng/g
COc1cccc(OC)c1-c1cc(C(=O)NC2(C(=O)O)C3CC4CC(C3)CC2C4)nn1-c1ccc(C(=O)N(C)CCCN(C)CCCN(C)C(=O)CN2CCN(CC(=O)[O-])CCN(CC(=O)[O-])CCN(CC(=O)[O-])CC2)cc1C(C)C.[177Lu+3] (stereo not drawn)		SCID mouse HT-29 xenograft, large intestine	iv, 4 h		tissue uptake	3.7 ± 1.2 %ID/g
CCc1c2c(nc3ccc(OC(=O)N4CCC(N5CCCCC5)CC4)cc13)-c1cc3c(c(=O)n1C2)COC(=O)[C@]3(O)CC		mouse Bcrp1(−/−), colon	intraperitoneal, 50 mg/kg, 24 h		tissue concentration	18600 ± 3400 ng/g
CCC(O)C(=O)O (stereo not drawn)	binding, equilibrium dialysis LC-MS		5 µM, thermostabilized A2AR-BRIL construct	baseline: no-protein control, direction not given	z-scored log2 fold change	0.783
CN[C@H](CC(C)C)C(=O)N[C@H]1C(=O)N[C@@H](CC(N)=O)C(=O)N[C@H]2C(=O)N[C@H]3C(=O)N[C@H](C(=O)N[C@H](C(=O)O)c4cc(O)cc(O)c4-c4cc3ccc4O)[C@H](O)c3ccc(c(Cl)c3)Oc3cc2cc(c3O[C@@H]2O[C@H](CO)[C@@H](O)[C@H](O)[C@H]2O[C@H]2C[C@](C)(N)[C@H](O)[C@H](C)O2)Oc2ccc(cc2Cl)[C@H]1O		male C57BL/6J mouse, thalamus	intracerebroventricular, 84 µg, 2.5 h	baseline: intracerebroventricular over intravenous 35 mg/kg	tissue concentration ratio	2 orders of magnitude

Excerpt of the above:
Structure (SMILES)	assay	system	conditions	how to read	measurement	result
COc1cccc(OC)c1-c1cc(C(=O)NC2(C(=O)O)C3CC4CC(C3)CC2C4)nn1-c1ccc(C(=O)N(C)CCCN(C)CCCN(C)C(=O)CN2CCN(CC(=O)[O-])CCN(CC(=O)[O-])CCN(CC(=O)[O-])CC2)cc1C(C)C.[177Lu+3] (stereo not drawn)		mouse, HT-29 xenograft, kidney	4 h post injection		tissue uptake	3.8 %ID/g
